# Assay results pooled from the literature.
# Parts stem from different laboratories: compare values within a part only. Positions count from the first letter of the parent shown.
# UniProt Q9FGV1, sequence (whole entry, looked up): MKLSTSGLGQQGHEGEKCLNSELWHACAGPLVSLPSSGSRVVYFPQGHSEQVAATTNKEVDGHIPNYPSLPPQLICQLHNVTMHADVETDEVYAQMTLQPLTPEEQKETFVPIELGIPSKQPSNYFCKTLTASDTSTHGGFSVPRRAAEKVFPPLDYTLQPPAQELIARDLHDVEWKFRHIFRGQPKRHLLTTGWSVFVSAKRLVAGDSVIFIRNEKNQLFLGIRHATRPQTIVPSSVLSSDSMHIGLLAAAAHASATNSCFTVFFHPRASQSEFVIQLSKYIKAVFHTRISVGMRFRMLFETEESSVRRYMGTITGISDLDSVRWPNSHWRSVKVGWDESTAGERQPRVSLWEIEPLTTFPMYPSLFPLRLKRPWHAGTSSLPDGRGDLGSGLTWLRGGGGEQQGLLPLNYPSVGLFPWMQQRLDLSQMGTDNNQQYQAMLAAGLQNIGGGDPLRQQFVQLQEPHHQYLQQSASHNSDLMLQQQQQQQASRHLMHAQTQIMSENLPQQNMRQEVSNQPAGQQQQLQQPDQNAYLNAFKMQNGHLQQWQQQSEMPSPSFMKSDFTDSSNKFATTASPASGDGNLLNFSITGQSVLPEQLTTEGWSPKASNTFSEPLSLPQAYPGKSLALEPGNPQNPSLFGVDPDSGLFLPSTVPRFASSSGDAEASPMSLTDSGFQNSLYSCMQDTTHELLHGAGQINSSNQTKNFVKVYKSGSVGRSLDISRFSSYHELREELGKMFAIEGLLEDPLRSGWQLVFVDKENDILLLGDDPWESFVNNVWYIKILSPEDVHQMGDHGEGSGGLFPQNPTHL
# UniProt O23661, sequence (whole entry, looked up): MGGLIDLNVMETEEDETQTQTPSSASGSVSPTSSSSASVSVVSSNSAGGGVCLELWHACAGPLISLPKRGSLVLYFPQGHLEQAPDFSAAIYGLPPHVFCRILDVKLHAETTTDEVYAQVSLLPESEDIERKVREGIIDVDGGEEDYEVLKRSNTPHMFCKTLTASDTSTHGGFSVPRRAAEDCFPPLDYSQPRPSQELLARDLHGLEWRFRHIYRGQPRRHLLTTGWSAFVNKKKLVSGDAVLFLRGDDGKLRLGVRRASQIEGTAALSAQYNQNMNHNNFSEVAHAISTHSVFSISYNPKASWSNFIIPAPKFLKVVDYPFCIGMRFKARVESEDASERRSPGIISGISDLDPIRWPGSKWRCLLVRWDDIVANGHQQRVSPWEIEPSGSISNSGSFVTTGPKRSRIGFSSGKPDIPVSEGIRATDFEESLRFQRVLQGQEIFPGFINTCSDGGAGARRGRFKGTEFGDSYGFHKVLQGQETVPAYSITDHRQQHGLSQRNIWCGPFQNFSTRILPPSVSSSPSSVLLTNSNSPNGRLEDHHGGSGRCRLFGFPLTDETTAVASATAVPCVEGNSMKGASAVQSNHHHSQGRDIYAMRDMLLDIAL
# UniProt O24409, sequence (whole entry, looked up): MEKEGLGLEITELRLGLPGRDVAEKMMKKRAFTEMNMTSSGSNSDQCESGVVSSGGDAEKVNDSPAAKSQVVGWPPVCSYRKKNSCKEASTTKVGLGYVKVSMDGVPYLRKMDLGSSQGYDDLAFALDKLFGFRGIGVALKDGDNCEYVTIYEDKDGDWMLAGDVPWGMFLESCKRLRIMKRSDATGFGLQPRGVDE
# UniProt Q93YR9, sequence (whole entry, looked up): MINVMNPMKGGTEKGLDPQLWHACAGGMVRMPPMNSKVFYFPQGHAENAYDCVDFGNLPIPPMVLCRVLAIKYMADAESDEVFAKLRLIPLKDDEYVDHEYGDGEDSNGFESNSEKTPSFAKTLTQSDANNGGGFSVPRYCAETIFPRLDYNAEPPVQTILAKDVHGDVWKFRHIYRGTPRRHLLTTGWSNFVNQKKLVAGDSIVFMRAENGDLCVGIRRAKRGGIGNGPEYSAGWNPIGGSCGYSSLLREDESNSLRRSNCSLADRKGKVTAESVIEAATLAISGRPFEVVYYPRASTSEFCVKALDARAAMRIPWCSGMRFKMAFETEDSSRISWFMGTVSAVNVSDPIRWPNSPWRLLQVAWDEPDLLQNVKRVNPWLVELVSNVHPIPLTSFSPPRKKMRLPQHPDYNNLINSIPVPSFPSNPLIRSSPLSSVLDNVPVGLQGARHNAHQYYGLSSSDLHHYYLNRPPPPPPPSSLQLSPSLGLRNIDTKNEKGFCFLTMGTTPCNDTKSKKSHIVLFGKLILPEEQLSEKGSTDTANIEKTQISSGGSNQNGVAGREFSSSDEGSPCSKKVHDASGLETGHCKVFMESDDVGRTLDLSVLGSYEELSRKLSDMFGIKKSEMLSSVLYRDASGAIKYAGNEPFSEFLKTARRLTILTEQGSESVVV
# UniProt O24410, sequence (whole entry, looked up): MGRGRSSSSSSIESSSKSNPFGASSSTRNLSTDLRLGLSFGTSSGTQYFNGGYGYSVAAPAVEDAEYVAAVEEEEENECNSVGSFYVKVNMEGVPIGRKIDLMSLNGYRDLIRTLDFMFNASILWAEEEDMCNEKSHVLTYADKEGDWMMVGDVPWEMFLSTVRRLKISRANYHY
# UniProt Q93WC4, sequence (whole entry, looked up): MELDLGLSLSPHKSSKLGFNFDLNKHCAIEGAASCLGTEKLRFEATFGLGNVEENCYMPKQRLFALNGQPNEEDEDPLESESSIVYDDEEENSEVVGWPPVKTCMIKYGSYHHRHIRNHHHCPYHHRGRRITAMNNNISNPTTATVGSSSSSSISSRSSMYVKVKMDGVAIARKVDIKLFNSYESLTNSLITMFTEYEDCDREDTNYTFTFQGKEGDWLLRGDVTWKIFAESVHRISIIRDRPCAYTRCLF

# Set 1 — technique: competition protein-binding microarray; form: double-stranded DNA, one strand shown; medium: in vitro; concentration: 2 µM; together with: Pho4 competitor, 0.05 µM; direction: higher = stronger binding; constant ends, left off below: … GTCTTGATTCGCTTGACGCTGCTG
# Target: Centromere-binding protein 1, full length, His-tagged (CBF1, Saccharomyces cerevisiae, UniProt P17106, residues 1-351)
# UniProt P17106, sequence (whole entry, looked up): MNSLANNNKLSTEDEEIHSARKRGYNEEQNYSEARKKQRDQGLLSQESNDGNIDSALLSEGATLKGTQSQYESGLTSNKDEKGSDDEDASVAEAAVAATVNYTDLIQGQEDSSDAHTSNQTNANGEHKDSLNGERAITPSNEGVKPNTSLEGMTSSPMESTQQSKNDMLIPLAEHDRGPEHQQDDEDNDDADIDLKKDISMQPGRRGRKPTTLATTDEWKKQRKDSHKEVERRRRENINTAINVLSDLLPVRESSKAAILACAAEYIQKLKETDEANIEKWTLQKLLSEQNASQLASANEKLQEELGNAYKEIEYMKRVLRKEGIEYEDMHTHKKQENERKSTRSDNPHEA
# Setting: whole 60-bp probe, lowest competitor level
Oligonucleotide,fluorescence intensity [a.u.]
TCTGATCTTGTGTTCCACGTGCCTGTGGTGGCTTTA,883
TCGCACCTTTGTGAGCACATGATTCTTTCTGCCGGT,686
AAATTACTAAGTTCTCACGTGTTTTACCCCGTATGA,1670
CTGGGAAAACATCACCACGTCTCAAAGAACCTGCAA,59.8
AGATGATTAAGACATCTCGTGGAGGAATCATCATCT,98.7
AATCTGTGTCAGTTCCACGTTCGTAATGGCAACCCG,58.9
TGGTGCACTATCCATTTCGTGCTTTTTGGTTATTGT,74
AAAGCGGTAATTTGTCGGGTGGGTGCAGATATCTAT,74.8

# Set 2 — Sequence: B1 (IAA3); technique: two-hybrid; reference: out of 4 tests; direction: higher = firmer interaction
# B1: IAA3 (Arabidopsis thaliana, UniProt Q38822); chain MDEFVNLKETELRLGLPGTDNVCEAKERVSCCNNNNKRVLSTDTEKEIESSSRKTETSPPRKAQIVGWPPVRSYRKNNIQSKKNESEHEGQGIYVKVSMDGAPYLRKIDLSCYKGYSELLKALEVMFKFSVGEYFERDGYKGSDFVPTYEDKDGDWMLIGDVPWEMFICTCKRLRIMKGSEAKGLGCGV
partner,conditions,positive tests
"ETT (Arabidopsis thaliana, UniProt O23661)",,0
"IAA20 (Arabidopsis thaliana, UniProt O24410)",weak activation fusion,2
"IAA29 (Arabidopsis thaliana, UniProt Q93WC4)",,0
"IAA19 (Arabidopsis thaliana, UniProt O24409)",,4
"ARF8 699-811 (Arabidopsis thaliana, UniProt Q9FGV1)",,3
"ARF16 570-670 (Arabidopsis thaliana, UniProt Q93YR9)",,0

# Set 3 — target: CCND1, cyclin fold, Cln2 fusion (human); technique: yeast growth competition, sequencing; medium: yeast; setting: weak parent motif; reference: not given; direction: higher = stronger binding
# Starting sequence: viral docking peptide; PTARRRLLHDLDT; partner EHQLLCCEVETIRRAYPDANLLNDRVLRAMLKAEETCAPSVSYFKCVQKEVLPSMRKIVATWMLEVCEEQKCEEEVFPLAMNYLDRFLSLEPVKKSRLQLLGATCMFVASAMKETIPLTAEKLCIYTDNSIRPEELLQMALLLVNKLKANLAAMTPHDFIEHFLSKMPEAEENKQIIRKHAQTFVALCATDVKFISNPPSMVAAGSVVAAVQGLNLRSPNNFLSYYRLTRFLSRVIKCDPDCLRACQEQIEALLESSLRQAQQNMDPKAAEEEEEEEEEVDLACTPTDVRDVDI
Change,normalised enrichment score
PTARRRLLHDLDA [T13A],-0.286
PTARRRALHDLDT [L7A],-0.114
PTARARLLHDLDT [R5A],-0.301
PTARRALLHDLDT [R6A],0.51
PTARKRLLFDLDT [R5K H9F],0.883
PTARKRLLHDLDT [R5K],-0.246
PTARRRLLADLDT [H9A],0.228
PAARRRLLHDLDT [T2A],-0.437

# Set 4 — technique: aptamer microarray, sandwich; form: DNA with 2'F-ANA; medium: in vitro; concentration: 200 nM; together with: Cy3 exosite-II aptamer, 400 nM; direction: higher = stronger binding; oligonucleotide: GGTTGGTGTGGTTGG
# Target: Prothrombin, mature alpha-thrombin (F2, Homo sapiens, UniProt P00734)
# Setting: whole 15-mer aptamer, many near background
Modification,mean fluorescence intensity [a.u.]
2'F-ANA at 2 3 4 5 10 11 14,47.1
2'F-ANA at 1 2 3 10 14,64.6
2'F-ANA at 1 2 4 5 7 9 11 12 13 14,73.1
2'F-ANA at 1 3 4 6 7 10 11,61.6
2'F-ANA at 1 3 7 11 12 15,491
2'F-ANA at 1 3 4 5 7 8 10 12,49.8
2'F-ANA at 1 7 8 10 13 15,52.9
2'F-ANA at 1 2 4 6 8 9 10 13,48.2

# Some of these lines once more (set 2):
partner,conditions,positive tests
"IAA29 (Arabidopsis thaliana, UniProt Q93WC4)",,0
"IAA19 (Arabidopsis thaliana, UniProt O24409)",,4
